Assay results from different studies.
Protocols differ between the studies behind these lines. Several values in a cell are separate wells, animals, samples, runs or records. Numbers after ± are the reported error. Converted amounts (≈) assume the structure as drawn.
rep nsp12 with nsp14/nsp10: Replicase polyprotein 1ab, nsp12 with nsp14/nsp10 (rep, Severe acute respiratory syndrome coronavirus 2, UniProt P0DTD1)
OPG122: mRNA-decapping protein OPG122 (OPG122, Vaccinia virus, UniProt P04312)
rep papain-like protease: Replicase polyprotein 1ab, papain-like protease (rep, Severe acute respiratory syndrome coronavirus 2, UniProt P0DTD1)
OPRK1: Kappa-type opioid receptor (OPRK1, Homo sapiens, UniProt P41145)

Structure (SMILES) | target or system | assay | system | setting | quantity | result
O=C(CSc1[nH]c2ccccc2c1SCC(=O)Nc1ccc(Cl)c(Cl)c1)Nc1ccc(Cl)c(Cl)c1 | rep nsp12 with nsp14/nsp10 | RdRp reporter activity, inhibitor, Gaussia luciferase reporter | HEK293T | 24 h, added: nsp7, nsp8, nsp10, nsp14 | EC50 | 3.62 µM
COc1nc(N)nc2c1ncn2C1OC(COP(=O)(O)OP(=O)(O)OP(=O)(O)O)C(O)C1O (stereo not shown) | OPG122 |  |  |  | Ki | > 0.8 µM
CC[C@H](C)[C@H](NC(=O)[C@H](CCCCN)NC(=O)[C@H](Cc1c[nH]c2ccccc12)NC(=O)[C@H](CC(C)C)NC(=O)[C@H](CC(C)C)NC(=O)[C@H](CC(=O)O)NC(=O)[C@@H](NC(=O)[C@H](CCCNC(=N)N)NC(=O)[C@H](CCC(=O)O)NC(=O)[C@H](CCCNC(=N)N)NC(=O)[C@H](CC(=O)O)NC(=O)[C@H](CC(C)C)NC(C)=O)[C@@H](C)CC)C(=O)N[C@@H](C)C(=O)N[C@@H](CCCNC(=N)N)C(=O)N[C@@H](C)C(=O)NCC(=O)N[C@@H](C)C(=O)N[C@@H](CCCNC(=N)N)C(=O)N[C@@H](CO)C(=O)N[C@@H](C)C(=O)N[C@H](C(=O)NCC(N)=O)C(C)C |  | membrane partitioning, 1H NMR | POPC:POPG:cholesterol SUV | pH 7.5, 25 °C | Kd | 1000 ± 60 µM
C[n+]1cn(C2OC(COP(=O)(O)OP(=O)(O)OP(=O)(O)O)C(O)C2O)c2nc(N)[nH]c(=O)c21 (stereo not shown) | OPG122 |  |  |  | Ki | 0.01 µM
Cc1ccc(OCCN(C)C)cc1C(=O)N[C@H](C)c1cc(-c2cnn(CF)c2)cc(-c2ccn(C)n2)c1 | rep papain-like protease | protease activity, inhibitor, FlipGFP | SARS-CoV-2 |  | EC50 | 2.7 ± 0.6 µM
C[C@H](c1cccc2ccccc12)N(C)Cc1ccc(O)cc1Cl | rep papain-like protease | enzyme activity in cells, inhibitor |  |  | EC50 | 10.2 µM
CC(C)C[C@H](NC(=O)OCc1ccccc1)C(=O)N[C@H](C=O)C[C@@H]1CCNC1=O | Replicase polyprotein 1ab, 3C-like proteinase (rep, Middle East respiratory syndrome-related coronavirus, UniProt K9N7C7) | viral replication |  |  | EC50 | 4 µM and < 10 µM
CC(C)C[C@H](NC(=O)[C@H](CO[C@@H]1O[C@H](CO)[C@@H](O[C@@H]2O[C@H](CO)[C@H](O)[C@H](O)[C@H]2O)[C@H](O)[C@H]1O)NC(=O)[C@H](CCCCN)NC(=O)[C@H](CC(C)C)NC(=O)C(C)(C)NC(=O)[C@H](CCCCN)NC(=O)[C@H](CCC(=O)O)NC(=O)[C@H](C)NC(=O)[C@H](CC(C)C)NC(=O)[C@H](CC(N)=O)NC(=O)[C@@H]1CCCN1C(=O)[C@H](CC(C)C)NC(=O)[C@H](Cc1ccccc1)NC(=O)CNC(=O)[C@H](NC(=O)[C@@H](N)Cc1ccc(O)cc1)[C@H](C)O)C(N)=O | OPRK1 | ligand displacement, radioligand |  | pH 7.5, cell membranes | Ki | 0.0057 µM
CCOC(=O)C=CC(CC1CCNC1=O)NC(=O)C(CC(C)C)NC(=O)C(NC(=O)OCc1ccccc1)C(C)OC(C)(C)C (stereo not shown) | Replicase polyprotein 1ab, main protease (Bat coronavirus HKU9, UniProt P0C6W5) | viral replication |  |  | EC50 | < 10 µM and 4.11 µM
Nc1nc2c(nc(O)n2C2OC(COP(=O)(O)OP(=O)(O)OP(=O)(O)O)C(O)C2O)c(=O)[nH]1 (stereo not shown) | OPG122 | inhibitor |  |  | Ki | > 0.8 µM
Cc1ccc(OCCN(C)C)cc1C(=O)N[C@H](C)c1cc(-c2cnn(C)c2)cc(-c2ccn(C)n2)c1 | rep papain-like protease | protease activity, inhibitor, FlipGFP | SARS-CoV-2 |  | EC50 | 2.9 ± 0.3 µM
O=C(NCc1ccccc1)C(N[C@H]1CCSC1=O)C1CC1 (single isomer, unassigned) | Thiosulfate sulfurtransferase (TST, Homo sapiens, UniProt Q16762) | enzyme activity, activator, cyanide to thiocyanate conversion |  |  | EC50 | 32.8 ± 0.9 µM
CC(C)C[C@H](NC(=O)[C@H](CO)NC(=O)[C@H](CCCCN)NC(=O)[C@H](CC(C)C)NC(=O)[C@H](C)NC(=O)[C@H](CCCCN)NC(=O)[C@H](CCC(=O)O)NC(=O)[C@H](C)NC(=O)[C@H](CC(C)C)NC(=O)[C@H](CC(N)=O)NC(=O)[C@@H]1CCCN1C(=O)[C@H](CC(C)C)NC(=O)[C@H](Cc1ccccc1)NC(=O)CNC(=O)[C@H](NC(=O)[C@@H](N)Cc1ccc(O)cc1)[C@H](C)O)C(N)=O | OPRK1 | ligand displacement, radioligand |  | pH 7.5, cell membranes | Ki | 0.014 µM
Nc1ncnc2c1ncn2C1OC(COP(=O)(O)OP(=O)(O)OP(=O)(O)O)C(O)C1O (stereo not shown) | OPG122 |  |  |  | Ki | 0.34 µM
CC(C)C[C@@H]1NC(=O)[C@H](CCCNC(=N)N)NC(=O)[C@@H]2CCCN2C(=O)[C@@H]2CSSC[C@H](NC(=O)CNC(=O)[C@@H]3CCCN3C(=O)[C@H](CCCCN)NC(=O)[C@H](CC(=O)O)NC(=O)[C@@H](NC(=O)CN)C(C)C)C(=O)N[C@@H](CCCNC(=N)N)C(=O)N[C@@H](Cc3ccc(O)cc3)C(=O)N[C@@H](CC(C)C)C(=O)N[C@@H](Cc3ccccc3)C(=O)NCC(=O)NCC(=O)N[C@H]3CSSC[C@H](NC(=O)CNC1=O)C(=O)N[C@@H](CCCCN)C(=O)NCC(=O)N[C@@H](CCCCN)C(=O)NCC(=O)N[C@@H](Cc1c[nH]cn1)C(=O)N[C@@H](CC(=O)O)C(=O)N[C@@H](Cc1ccc(O)cc1)C(=O)N[C@H](C(=O)N[C@@H](C)C(=O)N[C@@H](Cc1c[nH]c4ccccc14)C(=O)N[C@@H](CC(=O)O)C(=O)NCC(=O)N[C@H](C(=O)N[C@@H](Cc1ccccc1)C(=O)N[C@@H](CO)C(=O)N[C@@H](CC(=O)O)C(=O)O)[C@@H](C)O)CSSC[C@H](NC(=O)[C@H](CC(=O)O)NC(=O)[C@H](CC(=O)O)NC(=O)[C@H](CC(=O)O)NC(=O)[C@H](CO)NC(=O)[C@H](CCCCN)NC3=O)C(=O)N2 | Sodium channel protein type 4 subunit alpha (SCN4A, Homo sapiens, UniProt P35499) | peak sodium current, inhibitor, automated patch clamp | HEK293 | holding potential -100 mV, added: 0.1 % BSA | IC50 | 2.29 µM
CCCCCCCCCCCCCCCC(=O)N[C@@H](CCC(=O)NCCOCCOCCC(=O)NCCOCCOCCC(=O)NCCCC[C@H](NC(=O)[C@H](CC(=O)O)NC(=O)[C@H](CC(C)C)NC(=O)[C@H](Cc1ccc(O)cc1)NC(=O)[C@H](CCCCN)NC(=O)[C@H](CO)NC(=O)[C@H](Cc1ccc(O)cc1)NC(=O)[C@H](CC(=O)O)NC(=O)[C@H](CO)NC(=O)[C@@H](NC(=O)[C@H](Cc1ccccc1)NC(=O)[C@@H](NC(=O)CNC(=O)[C@H](CCC(N)=O)NC(=O)[C@@H](CO)NC(=O)[C@@H](N)Cc1c[nH]cn1)[C@@H](C)O)[C@@H](C)O)C(=O)N[C@@H](CCCNC(=N)N)C(=O)N[C@@H](CCCNC(=N)N)C(=O)N[C@@H](C)C(=O)N[C@@H](CCC(N)=O)C(=O)N[C@@H](CC(=O)O)C(=O)N[C@@H](Cc1ccccc1)C(=O)N[C@H](C(=O)N[C@@H](CCC(N)=O)C(=O)N[C@@H](Cc1c[nH]c2ccccc12)C(=O)N[C@@H](CC(C)C)C(=O)N[C@@H](CC(C)C)C(=O)N[C@@H](CC(N)=O)C(=O)N[C@H](C(=O)NCC(=O)NCC(=O)N1CCC[C@H]1C(=O)N[C@@H](CO)C(=O)N[C@@H](CO)C(=O)NCC(=O)N[C@@H](C)C(=O)N1CCC[C@H]1C(=O)N1CCC[C@H]1C(=O)N1CCC[C@H]1C(=O)N[C@@H](CO)C(N)=O)[C@@H](C)O)C(C)C)C(=O)O |  |  | male Sprague-Dawley rats | subcutaneous, 20 µg/kg once daily, 14 days | serum total bilirubin | 1 ± 0.3 µmol/L
COC1C(COP(=O)(O)OP(=O)(O)OP(=O)(O)O)OC(n2cnc3c(=O)[nH]c(N)nc32)C1O (stereo not shown) | OPG122 |  |  |  | Ki | 0.26 µM
CCOc1cccc(NC(=O)CSc2cn(C(=O)OC(C)(C)C)c3ccccc23)c1 | rep nsp12 with nsp14/nsp10 | RdRp reporter activity, inhibitor, Gaussia luciferase reporter | HEK293T | 24 h, added: nsp7, nsp8, nsp10, nsp14 | EC50 | 1.7 µM
CC[C@H](C)[C@H](NC(=O)[C@H](CCCCN)NC(=O)[C@H](CCCCN)NC(=O)[C@H](CC(C)C)NC(=O)[C@H](Cc1c[nH]c2ccccc12)NC(=O)CN)C(=O)NCC(=O)N[C@@H](CCCCN)C(=O)N[C@@H](CCCCN)C(=O)N[C@H](C(=O)N[C@@H](CCC(=O)O)C(=O)N[C@@H](CCCNC(=N)N)C(=O)N[C@H](C(=O)NCC(=O)N[C@@H](CCC(N)=O)C(=O)N[C@@H](Cc1c[nH]cn1)C(=O)N[C@H](C(=O)N[C@@H](CCCNC(=N)N)C(=O)N[C@@H](CC(=O)O)C(=O)N[C@@H](C)C(=O)N[C@H](C(=O)N[C@H](C(=O)N[C@@H](CCC(N)=O)C(=O)N[C@H](C(=O)N[C@H](C(=O)NCC(=O)N[C@H](C(=O)N[C@@H](C)C(=O)N[C@@H](CCC(N)=O)C(=O)N[C@@H](CCC(N)=O)C(=O)N[C@@H](C)C(=O)N[C@@H](C)C(=O)N[C@@H](CC(N)=O)C(=O)N[C@H](C(=O)N[C@@H](C)C(=O)N[C@@H](C)C(=O)N[C@H](C(=O)N[C@@H](CC(C)C)C(=O)N[C@@H](CCCCN)C(N)=O)[C@@H](C)O)C(C)C)C(C)C)[C@@H](C)CC)[C@@H](C)O)[C@@H](C)CC)[C@@H](C)O)[C@@H](C)O)C(C)C)[C@@H](C)CC | Klebsiella pneumoniae |  | DSM 30104, CAMHB with 10% mouse serum |  | MIC | 0.5 µg/mL (≈ 0.119 µM)
Cc1cc(O)cc(C)c1C[C@H](N)C(=O)NCC(=O)NCC(=O)N[C@@H](Cc1ccccc1)C(=O)N[C@H](C(=O)NCC(=O)N[C@@H](C)C(=O)N[C@@H](CCCNC(=N)N)C(=O)N[C@@H](CCCCN)C(=O)N[C@@H](CO)C(=O)N[C@@H](C)C(=O)N[C@@H](CCCNC(=N)N)C(=O)N[C@@H](CCCCN)C(N)=O)[C@@H](C)O | Nociceptin receptor (OPRL1, Homo sapiens, UniProt P41146) | calcium mobilisation, agonist | CHO with Gαqi5 | NOP receptor | EC50 | 0.000661 µM
CCCCCCCCCCCCCCCC(=O)N[C@@H](CCC(=O)NCCCC[C@H](NC(=O)[C@H](CC(=O)O)NC(=O)[C@H](CO)NC(=O)[C@@H](NC(=O)[C@H](Cc1ccccc1)NC(=O)[C@@H](NC(=O)CNC(=O)[C@H](CCC(N)=O)NC(=O)[C@H](C)NC(=O)[C@@H](Cc1ccc(O)cc1)NC(C)=O)[C@@H](C)O)[C@@H](C)O)C(=O)N[C@@H](CO)C(=O)N[C@@H](CCCCN)C(=O)N[C@@H](Cc1ccc(O)cc1)C(=O)N[C@@H](CC(C)C)C(=O)N[C@@H](CC(=O)O)C(=O)N[C@@H](CCC(=O)O)C(=O)N[C@@H](CCCNC(=N)N)C(=O)N[C@@H](C)C(=O)N[C@@H](C)C(=O)N[C@@H](CCC(N)=O)C(=O)N[C@@H](CC(=O)O)C(=O)N[C@@H](Cc1ccccc1)C(=O)N[C@H](C(=O)N[C@@H](CCC(N)=O)C(=O)N[C@@H](Cc1c[nH]c2ccccc12)C(=O)N[C@@H](CC(C)C)C(=O)N[C@@H](CC(C)C)C(=O)N[C@@H](CCC(=O)O)C(=O)NCC(=O)NCC(=O)N1CCC[C@H]1C(=O)N[C@@H](CO)C(=O)N[C@@H](CO)C(=O)NCC(=O)N[C@@H](C)C(=O)N1CCC[C@H]1C(=O)N1CCC[C@H]1C(=O)N1CCC[C@H]1C(=O)N[C@@H](CO)C(N)=O)C(C)C)C(=O)O |  |  | Wistar rat, male | intravenous, 0.02 mg/kg | central volume of distribution | 0.058 L/kg
Cc1ccc(OCCN(C)C)cc1C(=O)N[C@H](C)c1cc(-c2cnn(CCN3CCOCC3)c2)cc(-c2ccn(C)n2)c1 | rep papain-like protease | protease activity, inhibitor, FlipGFP | SARS-CoV-2 |  | EC50 | 14.7 ± 2.5 µM
